Results of several laboratories.
Protocols differ between the studies behind these lines. ± gives the spread as reported.
Cell line: HUVEC

SMILES | test | conditions | quantity | result
O=C(Cc1ccc(OCc2ccccc2)cc1)NC1(C(=O)O)CCN(C(=O)c2ccc(-c3cccc(Cl)c3)cc2)CC1 | cytotoxicity | 3 days | IC50 | > 100 µM
Oc1ccccc1/C=N/NC(=S)Nc1cc(C(F)(F)F)cc(C(F)(F)F)c1 | cell growth or viability, CCK-8 | 24 h | IC50 | 15.9 µg/mL
CC(=O)NCCC(=O)N[C@@H](CCCNC(=N)N)C(=O)NCC(=O)N[C@@H](CCC(=O)O)C(=O)N[C@@H](Cc1ccccc1)C(=O)N[C@H](C(=O)NCC(=O)O)C(C)C | LC-MS | 5000 µM, 48 h, glycine-terminated peptide | peptide remaining | 26%
C[C@@H]1Cc2cc(C(=O)C3=C(O)C(=O)N(CCc4ccccc4)[C@@H]3c3cccc(Br)c3)ccc2O1 | MTT | up to 100 µM, 24 h, serum-free, 0.05% BSA | viability | > 75%
C[C@@H](c1ccn(Cc2ccc(Cl)cc2Cl)n1)[C@](O)(Cn1cnnn1)c1ccc(F)cc1F | CCK-8 | 1 to 64 µg/mL, 24 h | viability | not toxic
CC(C)(C)n1cc(CN(Cc2cn(CC(=O)O)nn2)Cc2cn(C(C)(C)C)nn2)nn1 | cellular uptake, LC-ESI-MS/MS | 200 µM, 10 min, together with: CuSO4 100 µM and ascorbate 500 µM | intracellular concentration | 1 ± 0.1 µM
C[C@@H]1Cc2cc(C(=O)C3=C(O)C(=O)N(CCc4ccccc4)[C@@H]3c3cccc(Oc4ccccc4)c3)ccc2O1 (mixture of isomers) | MTT | up to 100 µM, 24 h, serum-free, 0.05% BSA | viability | > 75%
CC(C)(C)n1cc(CN(Cc2cn(CCOCCOCCOCCOCCOCCO)nn2)Cc2cn(C(C)(C)C)nn2)nn1 | cellular uptake, LC-ESI-MS/MS | 200 µM, 10 min, together with: CuSO4 100 µM and ascorbate 500 µM | intracellular concentration | 10.8 ± 0.3 µM
Oc1ccccc1/C=N/NC(=S)Nc1ccccc1 | cell growth or viability, CCK-8 | 24 h | IC50 | > 16 µg/mL
CNC(=O)c1c(C)oc2cc(Oc3ncnc4cc(OC)c(OCCCCCCC(=O)NO)cc34)ccc12 | cell growth or viability, ATP luminescence | 72 h | IC50 | 3.44 µM
